Assay results of several laboratories.
Parts stem from different laboratories: compare values within a part only. Substitutions count along the parent as printed.

Block 1 — technique: RNA Bind-n-Seq; form: RNA; matrix: in vitro; concentration: 200 nM; setting: whole 134-nt RNA, ends assumed; with: 150 mM LiCl; baseline: input library; direction: higher = stronger binding; all molecules: 7-deaza-guanosine replaces G
Target: Ras GTPase-activating protein-binding protein 1, full length (G3BP1, Homo sapiens, UniProt Q13283)
Chain of UniProt Q13283 (whole entry, looked up): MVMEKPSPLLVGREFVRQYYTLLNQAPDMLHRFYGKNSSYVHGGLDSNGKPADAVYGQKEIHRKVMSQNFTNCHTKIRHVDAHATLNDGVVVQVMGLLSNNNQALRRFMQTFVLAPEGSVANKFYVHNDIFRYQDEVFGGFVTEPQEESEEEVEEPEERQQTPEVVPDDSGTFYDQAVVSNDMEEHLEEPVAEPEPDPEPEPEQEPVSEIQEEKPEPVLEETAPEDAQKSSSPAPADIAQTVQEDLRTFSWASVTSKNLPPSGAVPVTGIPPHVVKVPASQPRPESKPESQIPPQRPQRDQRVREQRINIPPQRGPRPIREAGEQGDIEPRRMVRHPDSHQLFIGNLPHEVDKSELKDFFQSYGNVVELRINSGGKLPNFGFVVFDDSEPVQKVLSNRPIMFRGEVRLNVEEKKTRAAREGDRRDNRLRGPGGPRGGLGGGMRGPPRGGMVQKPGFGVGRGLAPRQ
With `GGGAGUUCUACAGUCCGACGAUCCUGUGCUACACAUCGUAUGUACCGAAUCGGGGCCCCCCCGGGGCCCCCCCGGGCCCCCCCGGAAAGUAUUAUGUUACGCCGUUCGGAUCUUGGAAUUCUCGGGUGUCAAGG` the log2 enrichment was -0.965.
`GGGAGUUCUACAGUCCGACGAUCUGUGCUACACAUCGUAUGUACCGAAUCGGGGUUUUUUUGGUUUUUUUGGGGUUUUUUUGGGGAAAGUAUUAUGUUACGCCGUUCGGAUCUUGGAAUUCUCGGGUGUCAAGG` has a log2 enrichment of 1.62.
The log2 enrichment of `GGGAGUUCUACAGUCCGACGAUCUGUUUAUCCAACAUAUGAUUUUGCCUGCCCCAUAGUUGACAGCAUCGAAGGUGUUACACAUGCCCUGAGAACAACAGAAUACCAUGACAGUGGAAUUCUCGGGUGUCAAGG` is reported as 0.126.
`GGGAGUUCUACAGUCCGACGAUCUAACUUUAGAGGGGGAUCUGAUGGAUAUGGCAGUGGACGUGGAUUUGGGGAUGGCUAUAAUGGGUAUGGAGGAGGACCUGGAGGUGGCAAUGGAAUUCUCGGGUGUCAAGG` gave a log2 enrichment of 0.0156.
The log2 enrichment of `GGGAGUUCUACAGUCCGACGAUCAAGUCCUGUGCUACACAUCGUAUGUACCGAAUCGGGAAAGGGAGGGUUUUUUUGGGAAAGUAUUAUGUUACGCCGUUCGGAUCUGCACUUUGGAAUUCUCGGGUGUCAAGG` is reported as -0.329.
`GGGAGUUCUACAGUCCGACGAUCCUGUGCUACACAUCGUAUGUACCGAAUCGGGGUUUUUUUGGGGUUUGGGGUUUUUUUGGGGAAAGUAUUAUGUUACGCCGUUCGGAUCUGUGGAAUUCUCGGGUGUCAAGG` gave a log2 enrichment of 0.928.
The log2 enrichment of `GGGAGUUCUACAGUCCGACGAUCGAGCUGGAAGCUAUCAAAGCUCGAGUCAGGGAGAUGGAGGAAGAAGCUGAGAAGCUAAAGGAGCUACAGAACGAGGUAGAGAAGCAGAUGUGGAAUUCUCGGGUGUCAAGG` is reported as -0.15.
`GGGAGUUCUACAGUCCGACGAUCCACAGACAACACGCACCCACACAGACACAGAGGGAAGGGGUUGGGAUGGGGAUAGGGUGCACAGCAGGGCGGGGUAGGACCCCAGCCCCUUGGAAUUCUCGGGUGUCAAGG` gave a log2 enrichment of -0.435.
`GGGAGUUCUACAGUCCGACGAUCACCAUGCAGGUGGGCAUCUUUGGGAAGUGGGGCAAGGGGGGGAUAGGGAGAGGGGUAACACUUUGGGAACAGGUGGUCCCAGGUCGUUUCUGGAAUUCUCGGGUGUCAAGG` gave a log2 enrichment of 0.347.
For `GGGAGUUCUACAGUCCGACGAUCCUCAAGUCCUGUGCUACACAUCGUAUGUACCGAAUCGGUGGAGGUUUUUUUGGAAAGUAUUAUGUUACGCCGUUCGGAUCUGCACUUCCAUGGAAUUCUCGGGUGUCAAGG`, the log2 enrichment was 0.416.
With `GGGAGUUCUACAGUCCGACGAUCCCUCAAGUCCUGUGCUACACAUCGUAUGUACCGAAUCGGAGGAAAGGUUUGGAAAGUAUUAUGUUACGCCGUUCGGAUCUGCACUUCCAGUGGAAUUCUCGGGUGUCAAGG` the log2 enrichment was -0.963.

Block 2 — technique: DHFR PCA, deep sequencing; matrix: yeast; with: (+)-ABA 710 µM; baseline: wild-type fitted maximum; direction: higher = stronger binding
Target: ABI1, truncated, D143A, DHFR fusion (Arabidopsis thaliana)
Setting: methotrexate growth selection, single substitutions
Starting sequence: PYL1, truncated, DHFR fusion (Arabidopsis thaliana); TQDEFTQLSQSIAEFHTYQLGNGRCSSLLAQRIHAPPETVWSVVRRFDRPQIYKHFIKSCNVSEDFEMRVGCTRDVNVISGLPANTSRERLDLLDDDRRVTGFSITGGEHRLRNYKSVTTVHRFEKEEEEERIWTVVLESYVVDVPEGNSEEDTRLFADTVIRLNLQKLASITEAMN
`L166Q`: “relative binding score” 84.7%.
For `D75P`, “relative binding score” read -2.5%.
`A175R` — result for “relative binding score”: 102%.
For `Y18N`, “relative binding score” read 96.9%.
`F157V`: “relative binding score” 87%.
`F124S`: “relative binding score” 100%.
Under “relative binding score”, `N22E` is recorded as 105%.
Under “relative binding score”, `A175I` is recorded as 99.6%.
For `G107D`, “relative binding score” read 95.9%.
`G71A` — result for “relative binding score”: 69.7%.
`W41F`: “relative binding score” 67.2%.
For `D153K`, “relative binding score” read 4.37%.
`T86A`: “relative binding score” 97.9%.

Block 3 — target: CCND1, cyclin fold, Cln2 fusion (human); technique: yeast growth competition, sequencing; matrix: yeast; setting: weak parent motif; baseline: not given; direction: higher = stronger binding
Starting sequence: CUX1 docking peptide (human); SRIRRELFIEEIQ
Under “normalised enrichment score”, `SRIRRELFIAEIQ [E10A]` is recorded as 0.286.
For `ARIRRELFIEEIQ [S1A]`, “normalised enrichment score” read 0.333.
Under “normalised enrichment score”, `SRIRKELFIEEIQ [R5K]` is recorded as 0.231.
`SRIRRELFIEEIA [Q13A]` — result for “normalised enrichment score”: -0.134.
`SRIRRALFIEEIQ [E6A]`: “normalised enrichment score” 0.122.
Under “normalised enrichment score”, `SRIRREAFIEEIQ [L7A]` is recorded as 0.33.
`SAIRRELFIEEIQ [R2A]` — result for “normalised enrichment score”: 0.388.

Block 4 — technique: universal PBM; form: double-stranded DNA, one strand shown; matrix: in vitro; concentration: not given; direction: higher = stronger binding
Target: Sal-like protein 4, full length isoform B (SALL4, Homo sapiens, UniProt Q9UJQ4-2, residues 1-616)
Setting: 8-mer, flanks averaged, mean of replicates
The E-score of `TACATTAA` is reported as 0.307.
`CTTTCTCC` gave an E-score of -0.182.
For `ACCAGTTA`, the E-score was 0.069.
`GCCGCCAA` gave an E-score of -0.256.
`CGGCTCGC` gave an E-score of -0.168.
The E-score of `ATTCACCA` is reported as 0.137.
For `TAGCACTA`, the E-score was 0.0859.
For `CAGCTAGG`, the E-score was -0.201.
`ACGGGGCG` gave an E-score of -0.199.
With `ACATTTTC` the E-score was 0.159.
`GGGCTTGA` has an E-score of -0.246.
With `CATCGAGG` the E-score was -0.0901.
`CATGAACC` gave an E-score of -0.0806.
`TGCTAACA` has an E-score of 0.0194.
The E-score of `TAACATAA` is reported as 0.356.
`AGGCTAGC` gave an E-score of -0.00154.
For `GTCAAATA`, the E-score was 0.294.
With `CCCAAAAG` the E-score was -0.136.
The E-score of `TAACAAAA` is reported as 0.35.
With `CGGTCGAA` the E-score was -0.256.
The E-score of `GGGTAATA` is reported as 0.273.
`CAGGTAAG` gave an E-score of 0.0449.
The E-score of `CTAACACC` is reported as -0.182.
`ACCCTACT` gave an E-score of -0.0269.
The E-score of `TCTTCGAA` is reported as 0.00307.

A few entries again (block 4):
`ACCCTACT` gave an E-score of -0.0269.
`CATGAACC` gave an E-score of -0.0806.
`GGGCTTGA` has an E-score of -0.246.
`CAGGTAAG` gave an E-score of 0.0449.
The E-score of `GGGTAATA` is reported as 0.273.
`AGGCTAGC` gave an E-score of -0.00154.
For `CAGCTAGG`, the E-score was -0.201.
With `ACATTTTC` the E-score was 0.159.
